Measurements from different studies.
Every numbered part comes from another study and shows a few of its results, in no order. Positions count from the first letter of the parent shown.

Study 1
Target: Eukaryotic initiation factor 4A-I (EIF4A1, Homo sapiens, UniProt P60842, residues 1-406, full length assumed)
Sequence of UniProt P60842 (whole entry, looked up): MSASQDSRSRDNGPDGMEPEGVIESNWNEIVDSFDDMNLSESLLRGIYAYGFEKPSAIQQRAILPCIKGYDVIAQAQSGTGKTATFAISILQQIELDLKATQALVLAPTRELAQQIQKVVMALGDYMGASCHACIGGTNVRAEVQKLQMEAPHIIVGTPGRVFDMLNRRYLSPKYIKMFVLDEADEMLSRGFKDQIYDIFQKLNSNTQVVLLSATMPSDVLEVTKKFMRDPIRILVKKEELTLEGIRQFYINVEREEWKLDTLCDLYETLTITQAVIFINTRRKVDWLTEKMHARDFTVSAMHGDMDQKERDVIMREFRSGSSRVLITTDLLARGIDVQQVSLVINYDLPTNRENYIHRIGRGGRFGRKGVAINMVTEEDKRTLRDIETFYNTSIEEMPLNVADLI
Method: RNA Bind-n-Seq
Molecule type: RNA
Medium: in vitro
Tested at: 15 pmol
Setting: 4-mer, random 30-nt RNA, single round
Added: DMSO vehicle, 2 mM AMP-PNP
Reference: input library
Reading: higher = stronger binding
Sequence	4-mer enrichment [fold]
CUGC	1.58
GCUA	0.679
GAGU	0.957
CGCU	1.02
CUAU	0.864
CUUG	1.09
AUAA	1.36
CUAG	0.587

Study 2
Target: Histone acetyltransferase KAT6A, winged helix 2, GST fusion (KAT6A, Homo sapiens, UniProt Q92794, residues 85-181)
Method: protein binding microarray
Molecule type: double-stranded DNA, one strand shown
Medium: in vitro
Tested at: not given
Setting: 8-mer, flanks averaged, mean of 2 arrays, mostly near background
Reference: not given
Reading: higher = stronger binding
Target sequence (chain): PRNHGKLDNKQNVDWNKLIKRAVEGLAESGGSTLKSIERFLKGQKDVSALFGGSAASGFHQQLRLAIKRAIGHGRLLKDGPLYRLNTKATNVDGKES
Sequence	E-score
GTAAGTTA	-0.0238
TGCTGGAA	0.127
CCTAGTTC	-0.08
GATTGAGA	-0.0613
GTGTAGCA	-0.053
ACAGTAAT	-0.0821
CCCACCGA	-0.00409
ATACTGGA	-0.0112

Study 3
Target: Krueppel-like factor 3, full length (KLF3, Homo sapiens, UniProt P57682, residues 1-345)
Sequence of UniProt P57682 (whole entry, looked up): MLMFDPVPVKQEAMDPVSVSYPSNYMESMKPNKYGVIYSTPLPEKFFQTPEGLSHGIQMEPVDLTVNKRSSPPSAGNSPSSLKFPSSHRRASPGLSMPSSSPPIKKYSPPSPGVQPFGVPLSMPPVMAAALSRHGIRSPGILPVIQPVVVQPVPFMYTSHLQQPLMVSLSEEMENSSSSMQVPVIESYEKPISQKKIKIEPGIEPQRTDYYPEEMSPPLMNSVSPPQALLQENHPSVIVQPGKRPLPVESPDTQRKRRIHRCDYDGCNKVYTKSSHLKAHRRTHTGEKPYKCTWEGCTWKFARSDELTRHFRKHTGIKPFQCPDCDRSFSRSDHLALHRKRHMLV
Method: protein-binding microarray
Molecule type: hairpin DNA
Medium: in vitro
Tested at: not given
Setting: whole hairpin DNA, median over replicate spots
Reference: not given
Reading: higher = stronger binding
Constant ends, left off below: GAGGCCG … CGGCCTCACACTC
Sequence	median fluorescence [a.u.]
ACCACGCCCGGCCTCCTGGCCGGGCGTGGT (5mC at 16 28)	10500
ACCAGGCCCAGCCTCCTGGCTGGGCCTGGT (5mC at 33)	7550
ACCAAGCCCAGCCTCCTGGCTGGGCTTGGT	7680
ACCACGCCCGGCCTCCTGGCCGGGCGTGGT	9920
AGCACGCCCAGCCTCCTGGCTGGGCGTGCT (5mC at 36)	9510
ACCGCGCCCAGCCTCCTGGCTGGGCGCGGT (5mC at 38)	8810
ACCGCGGCCAGCCTCCTGGCTGGCCGCGGT (5mC at 31)	8190
CCCGCGCCCAGCCTCCTGGCTGGGCGCGGG	9240

Single results of other studies
Starting sequence: viral docking peptide; KGVKRKLFAEDSS; partner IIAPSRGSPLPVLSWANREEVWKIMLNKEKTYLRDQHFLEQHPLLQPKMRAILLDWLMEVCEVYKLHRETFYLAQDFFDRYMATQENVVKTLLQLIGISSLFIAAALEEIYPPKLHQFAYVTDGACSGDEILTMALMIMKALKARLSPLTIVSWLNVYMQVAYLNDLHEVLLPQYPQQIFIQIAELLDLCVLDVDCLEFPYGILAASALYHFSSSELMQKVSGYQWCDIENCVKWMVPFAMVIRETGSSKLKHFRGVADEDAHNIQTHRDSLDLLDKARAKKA
Substitution	target	assay	test system	setting	scale	quantity	result
R5W	CCNE1, cyclin fold, Cln2 fusion (human)	yeast growth competition, sequencing	yeast	strong parent motif	reference: not given, higher = stronger binding	normalised enrichment score	0.246
